# Published values of several laboratories.
# Compare with care: the assays were run in different laboratories. Several values in a cell are separate wells, animals, samples, runs or records. Numbers after ± are the reported error.
SMILES,assay,test system,setting,plasma concentration
O=C(O)CCCCCCCCCCCCC(=O)O,,"healthy human volunteers, plasma","dose not given, 0 h, baseline phase, no drug",116 ± 22 nM
C[C@H]1[C@H]2N(C(=O)CN(C)N2C(=O)NCc2ccccc2)[C@@H](Cc2ccc(OP(=O)(O)O)cc2)C(=O)N1Cc1cccc2cccnc12,,"human, plasma","intravenous, dose not given, before administration",< 0.1 ng/mL
COCCCOc1ccnc(C[S+]([O-])c2nc3ccccc3[nH]2)c1C (stereo not shown),,"healthy male humans, plasma","oral, 40 mg/day for -4 days, 1.5 h",184 ng/mL
C[C@H](CCC(=O)NCCS(=O)(=O)O)[C@H]1CC[C@H]2[C@@H]3CC[C@@H]4C[C@H](OS(=O)(=O)O)CC[C@]4(C)[C@H]3CC[C@]12C,,"healthy human volunteers, plasma","dose not given, 0 h, baseline phase, no drug",140 ± 43 nM
COc1cc2c(cc1OC)CN(CCc1ccc(NC(=O)c3cc(OC)c(OC)cc3NC(=O)c3cnc4ccccc4c3)cc1)CC2,,"human, plasma","intravenous infusion, 5.9 mg/kg, 60 min",2810 nM and 1910 nM and 2110 nM
O=C(O)CCCCCCCCCCCCCCCCC(=O)O,,"healthy human volunteers, plasma","dose not given, 0 h, baseline phase, no drug",89.4 ± 6 nM
Cn1c(=O)c2c(ncn2C)n(C)c1=O,,"human, both sexes, plasma",median,172000 nM
C[C@H](CCC(=O)O)[C@H]1CC[C@H]2[C@@H]3CC[C@@H]4C[C@H](OS(=O)(=O)O)CC[C@]4(C)[C@H]3CC[C@]12C,,"healthy human volunteers, plasma","dose not given, 0 h, control phase, probe drugs alone",292 ± 17 nM
O=C(O)[C@H]1O[C@@H](Oc2ccc(/C=C/c3cc(O)cc(O)c3)cc2)[C@H](O)[C@@H](O)[C@@H]1O,,"human, plasma",median,87.1 nM
N#Cc1ccc(C(c2ccc(C#N)cc2)n2cncn2)cc1,,"human patients, plasma","oral, 12.5 mg daily, day of surgery",172 ± 68.4 ng/mL
C[C@H](CCC(=O)O)[C@H]1CC[C@H]2[C@@H]3[C@H](O)C[C@@H]4C[C@H](O)CC[C@]4(C)[C@H]3CC[C@]12C,,"healthy human volunteers, plasma","oral, dose not given, 0 h, control phase, probe drugs alone",1060 ± 330 nM
O=C(O)c1ccc(O)c(O[C@@H]2O[C@H](C(=O)O)[C@@H](O)[C@H](O)[C@H]2O)c1,,"human, plasma","dose not given, mean",not detected
CO[C@H]1/C=C/O[C@@]2(C)Oc3c(C)c(O)c4c(O)c(c(/C=N/N5CCN(C)CC5)c(O)c4c3C2=O)NC(=O)/C(C)=C\C=C\[C@H](C)[C@H](O)[C@@H](C)[C@@H](O)[C@@H](C)[C@H](OC(C)=O)[C@@H]1C,,"healthy male humans, plasma","oral, dose not given, 4 h, with cocktail",6720 ng/mL
C[C@H](CCC(=O)NCC(=O)O)[C@H]1CC[C@H]2[C@@H]3CC[C@@H]4C[C@H](OS(=O)(=O)O)CC[C@]4(C)[C@H]3C[C@H](O)[C@]12C,,"healthy human volunteers, plasma","dose not given, 0 h, baseline phase, no drug",256 ± 72 nM
Cc1cc(N(CCOS(C)(=O)=O)CCOS(C)(=O)=O)ccc1C=O,,"human, plasma","intravenous, 12 mg/m^2, 5 min",4.7 ng/mL
Cn1c(=O)c2[nH]cnc2n(C)c1=O,,"human, both sexes, plasma",mean,40400 nM
CCCN(CCC)S(=O)(=O)c1ccc(C(=O)O)cc1,,"healthy male humans, plasma","oral, dose not given, 2 h, 1 h before cocktail",379000 nM
O=C(Nc1cnccc1Cl)N1CCN(Cc2ccc3c(c2)OC(F)(F)O3)CC1,,"human, plasma","10 mg single dose, 24 h post dose day 1",6.21 ng/mL and 4.4 ng/mL
C[C@H](CCC(=O)NCCS(=O)(=O)O)[C@H]1CC[C@H]2[C@@H]3[C@H](O)C[C@@H]4C[C@H](O)CC[C@]4(C)[C@H]3C[C@H](O)[C@]12C,,"healthy human volunteers, plasma","dose not given, 0 h, control phase, probe drugs alone",17.2 ± 4.7 nM
C[C@@H](O)[C@H]1C(=O)N2C(C(=O)O)=C(SCCN=CN)C[C@H]12,,human,"intravenous, 500 mg single, 0.48 h",86900 nM
O=S(=O)(O)Oc1cc(O)cc(/C=C/c2ccc(O)cc2)c1,,"human, plasma",median,997 nM
CC1(C)CCC(CN2CCN(c3ccc(C(=O)NS(=O)(=O)c4ccc(NCC5CCOCC5)c([N+](=O)[O-])c4)c(Oc4cnc5[nH]ccc5c4)c3)CC2)=C(c2ccc(Cl)cc2)C1,UPLC-MS/MS,"human patients, non-responders","oral, dose not given, 6 h post-dose, steady state, median",1630 ng/mL
Cn1c(=O)[nH]c(=O)c2[nH]cnc21,,"human, both sexes, plasma",mean,5310 nM
C[C@H](CCC(=O)NCC(=O)O)[C@H]1CC[C@H]2[C@@H]3[C@H](O)C[C@@H]4C[C@H](O)CC[C@]4(C)[C@H]3C[C@H](O)[C@]12C,,"healthy human volunteers, plasma","dose not given, 0 h, baseline phase, no drug",51.3 ± 17 nM
Cn1c(=O)[nH]c2nc[nH]c2c1=O,,"human, both sexes, plasma",mean,13700 nM
CN1CCN(c2ccc(OC(F)(F)F)c(Nc3ncc4c(n3)-c3c(c(C(N)=O)nn3CCO)CC4)c2)CC1,LC-MS/MS,"human, plasma","oral, 12 mg/m2, 48 h post-dose",7.2 ng/mL and 10.9 ng/mL and 7.18 ng/mL and 11.8 ng/mL and 3.1 ng/mL and 28.4 ng/mL
O=C(O)[C@H]1O[C@@H](Oc2cc(O)cc(/C=C/c3ccc(O)cc3)c2)[C@H](O)[C@@H](O)[C@@H]1O,,"human, plasma",median,781 nM
CC1(C)CCC(CN2CCN(c3ccc(C(=O)NS(=O)(=O)c4ccc(NCC5CCOCC5)c([N+](=O)[O-])c4)c(Oc4cnc5[nH]ccc5c4)c3)CC2)=C(c2ccc(Cl)cc2)C1,,"human, plasma","oral, 300 mg/day",1520 nM and 774 nM

# Some of these lines once more:
SMILES,assay,test system,setting,plasma concentration
C[C@H](CCC(=O)NCC(=O)O)[C@H]1CC[C@H]2[C@@H]3CC[C@@H]4C[C@H](OS(=O)(=O)O)CC[C@]4(C)[C@H]3C[C@H](O)[C@]12C,,"healthy human volunteers, plasma","dose not given, 0 h, baseline phase, no drug",256 ± 72 nM
Cc1cc(N(CCOS(C)(=O)=O)CCOS(C)(=O)=O)ccc1C=O,,"human, plasma","intravenous, 12 mg/m^2, 5 min",4.7 ng/mL
Cn1c(=O)c2[nH]cnc2n(C)c1=O,,"human, both sexes, plasma",mean,40400 nM
